Measured values from different studies.
Every numbered part comes from another study and shows a few of its results, in no order. Substitutions count along the parent as printed.

Series 1
Target: ABI1, truncated, D143A, DHFR fusion (Arabidopsis thaliana)
Method: DHFR PCA, deep sequencing
Sample: yeast
Setting: methotrexate growth selection, single substitutions
Added: (+)-ABA 0.0091 µM
Reference: wild-type fitted maximum
Direction: higher = stronger binding
Parent: PYL1, truncated, DHFR fusion (Arabidopsis thaliana); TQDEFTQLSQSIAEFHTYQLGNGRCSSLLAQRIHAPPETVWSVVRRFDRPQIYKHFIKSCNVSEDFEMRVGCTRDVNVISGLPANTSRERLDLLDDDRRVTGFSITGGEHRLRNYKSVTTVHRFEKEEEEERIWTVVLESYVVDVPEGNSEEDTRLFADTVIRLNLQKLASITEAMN
| Variant | relative binding score |
| --- | --- |
| R90P | 0.382% |
| R74E | 1.07% |
| D97H | 20.3% |
| N22P | 63.1% |
| R69I | 18.3% |
| E89Q | -4.22% |
| V76W | -4.26% |
| S11T | 29.4% |
| V62W | -2.38% |

Series 2
Target: Sal-like protein 4, full length isoform B (SALL4, Homo sapiens, UniProt Q9UJQ4-2, residues 1-616)
Method: universal PBM
Form: double-stranded DNA, one strand shown
Sample: in vitro
Tested at: not given
Setting: 8-mer, flanks averaged, mean of replicates
Direction: higher = stronger binding
Target sequence (chain): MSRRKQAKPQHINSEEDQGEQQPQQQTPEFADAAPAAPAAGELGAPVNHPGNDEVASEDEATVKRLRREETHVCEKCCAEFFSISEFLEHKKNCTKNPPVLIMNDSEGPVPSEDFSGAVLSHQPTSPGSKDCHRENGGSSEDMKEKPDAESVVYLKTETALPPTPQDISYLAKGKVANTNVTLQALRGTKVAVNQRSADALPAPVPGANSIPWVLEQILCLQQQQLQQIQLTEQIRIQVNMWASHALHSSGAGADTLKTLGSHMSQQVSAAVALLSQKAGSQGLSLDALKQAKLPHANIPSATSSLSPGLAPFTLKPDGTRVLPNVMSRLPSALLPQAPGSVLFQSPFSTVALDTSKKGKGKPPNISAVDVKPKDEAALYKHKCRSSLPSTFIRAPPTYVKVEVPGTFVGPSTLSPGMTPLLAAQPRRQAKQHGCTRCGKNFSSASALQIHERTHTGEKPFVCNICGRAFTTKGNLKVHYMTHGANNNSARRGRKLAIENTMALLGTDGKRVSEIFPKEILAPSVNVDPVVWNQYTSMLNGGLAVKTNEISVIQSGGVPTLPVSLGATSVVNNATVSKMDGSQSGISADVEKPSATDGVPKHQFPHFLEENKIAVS
| Sequence | E-score |
| --- | --- |
| TAGACCGA | -0.0301 |
| CCTTCACG | -0.0547 |
| TGACGTAA | 0.179 |
| CGAATTGC | -0.0669 |
| CCCAGACG | -0.232 |
| AAATTACT | 0.349 |
| ATTTCAGA | 0.213 |
| CAATTCGC | -0.0295 |
| GGGCGCCC | -0.278 |
| AAGAACTA | 0.141 |
| TCAATAAA | 0.392 |
| GATCTAAA | 0.122 |
| GCGAGGAA | -0.0368 |

Series 3
Target: Interferon regulatory factor 7, full length, phosphomimetic (IRF7, Homo sapiens, UniProt Q92985, residues 1-503, S471D/S472D/S475D/S476D/S477D/S483D/S484D/S487D)
Method: protein-binding microarray
Form: double-stranded DNA, one strand shown
Sample: in vitro
Tested at: 2200 nM top
Setting: 60-bp whole probe
Added: salmon DNA 0.4 mg/ml
Reference: random background probes
Direction: higher = stronger binding
Shared flanks, not repeated: GCCTAGCAC … GTCTTGATTCGCTTGACGCTGCTG
Construct (chain): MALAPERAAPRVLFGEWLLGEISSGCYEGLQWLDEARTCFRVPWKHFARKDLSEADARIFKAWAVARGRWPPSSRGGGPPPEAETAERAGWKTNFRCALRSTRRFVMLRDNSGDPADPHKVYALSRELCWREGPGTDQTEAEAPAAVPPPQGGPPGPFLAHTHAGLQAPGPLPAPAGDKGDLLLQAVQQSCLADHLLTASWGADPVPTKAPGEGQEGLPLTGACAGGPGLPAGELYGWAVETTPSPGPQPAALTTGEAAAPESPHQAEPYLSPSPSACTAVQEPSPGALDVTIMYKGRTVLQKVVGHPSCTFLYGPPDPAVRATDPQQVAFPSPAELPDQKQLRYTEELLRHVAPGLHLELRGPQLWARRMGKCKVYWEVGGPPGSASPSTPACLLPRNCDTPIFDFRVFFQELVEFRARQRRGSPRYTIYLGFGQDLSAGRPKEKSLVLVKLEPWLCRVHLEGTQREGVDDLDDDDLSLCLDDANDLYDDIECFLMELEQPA
| Sequence | fitted relative affinity [z-score] |
| --- | --- |
| TCACATTTCCTTTACATACTGTGCTAG | 3.24 |
| TTAGATATCAGTCTCGTTTAGTGCTAG | 0.734 |
| TTAGGTTTCGGACTCGGTTAGTGCTAG | 3.77 |
| GACGATTTCAGACTGGATACGTGCTAG | 0.41 |
| TGGGTATTTTTTCTGAACCAGTGCTAG | 0.613 |
| TTAGGTTTCGACACTGGGTTTGTGCTA | 2.51 |
| TCAAATTTACTTTCTACACTGTGCTAG | 1.65 |
| TTAGAACTGGGTTTCGATTAGTGCTAG | 2.84 |
| TCATTTTTCCCCTGCACACTGTGCTAG | 2.79 |
| TTAGGTTTCGGTATCTGTTAGTGCTAG | 7.06 |
| GACGTACTGAGTTTCGAGACGTGCTAG | 2.26 |
| GACGATATCAGGTATCGAGACGTGCTA | 0.226 |

Mixed results
| Substance | target | assay | system | setting | scale | quantity | result |
| --- | --- | --- | --- | --- | --- | --- | --- |
| PhoQ, residues 284 288 289 292 302 303 TLASMF | PhoP, residues 12 14 15 18 19 TTLRV (Escherichia coli, UniProt P23836) | Sort-seq, measured: YFP reporter | E. coli | PhoQ-PhoP variant library, added: 10 µM Mg2+ | reference: high Mg2+ state, higher = stronger signaling | fold induction | 1.52 |

Repeated from above (series 1):
| Variant | relative binding score |
| --- | --- |
| R90P | 0.382% |
| R74E | 1.07% |
| D97H | 20.3% |
